# Results of several laboratories.
# A part holds a random share of what one study measured.

# Sample 1 — technique: RNA Bind-n-Seq; form: RNA; matrix: in vitro; concentration: not given; setting: 4-mer, random 30-nt RNA, single round; added: RocA, ADP, phosphate; baseline: input library; reading: higher = stronger binding
# Target: Eukaryotic initiation factor 4A-I (EIF4A1, Homo sapiens, UniProt P60842, residues 1-406, full length assumed)
# Sequence of UniProt P60842 (whole entry, looked up): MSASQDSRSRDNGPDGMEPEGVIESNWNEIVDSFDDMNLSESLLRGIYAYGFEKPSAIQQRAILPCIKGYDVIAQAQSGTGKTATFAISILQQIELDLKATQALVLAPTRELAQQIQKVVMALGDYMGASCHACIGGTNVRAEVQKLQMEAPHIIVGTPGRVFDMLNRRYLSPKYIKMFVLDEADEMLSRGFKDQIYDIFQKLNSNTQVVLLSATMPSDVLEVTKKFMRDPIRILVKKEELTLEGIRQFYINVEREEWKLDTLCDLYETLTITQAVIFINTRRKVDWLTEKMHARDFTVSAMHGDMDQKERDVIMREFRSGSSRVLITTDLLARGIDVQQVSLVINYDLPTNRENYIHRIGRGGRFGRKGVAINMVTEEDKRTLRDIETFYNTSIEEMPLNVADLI
Sequence,4-mer enrichment [fold]
AUGG,1.15
GUCA,0.795
GUCU,0.702
GGCG,0.91
CUGA,1.01
GACU,0.689
CGCU,0.576
AGGA,2.02
UGCG,0.847
UACC,0.608
GCUA,0.758
ACAA,0.822

# Sample 2 — technique: universal PBM; form: double-stranded DNA, one strand shown; matrix: in vitro; concentration: not given; reading: higher = stronger binding
# Target: Sal-like protein 4, full length isoform B (SALL4, Homo sapiens, UniProt Q9UJQ4-2, residues 1-616)
# Setting: 8-mer, flanks averaged, mean of replicates
# Target sequence (chain): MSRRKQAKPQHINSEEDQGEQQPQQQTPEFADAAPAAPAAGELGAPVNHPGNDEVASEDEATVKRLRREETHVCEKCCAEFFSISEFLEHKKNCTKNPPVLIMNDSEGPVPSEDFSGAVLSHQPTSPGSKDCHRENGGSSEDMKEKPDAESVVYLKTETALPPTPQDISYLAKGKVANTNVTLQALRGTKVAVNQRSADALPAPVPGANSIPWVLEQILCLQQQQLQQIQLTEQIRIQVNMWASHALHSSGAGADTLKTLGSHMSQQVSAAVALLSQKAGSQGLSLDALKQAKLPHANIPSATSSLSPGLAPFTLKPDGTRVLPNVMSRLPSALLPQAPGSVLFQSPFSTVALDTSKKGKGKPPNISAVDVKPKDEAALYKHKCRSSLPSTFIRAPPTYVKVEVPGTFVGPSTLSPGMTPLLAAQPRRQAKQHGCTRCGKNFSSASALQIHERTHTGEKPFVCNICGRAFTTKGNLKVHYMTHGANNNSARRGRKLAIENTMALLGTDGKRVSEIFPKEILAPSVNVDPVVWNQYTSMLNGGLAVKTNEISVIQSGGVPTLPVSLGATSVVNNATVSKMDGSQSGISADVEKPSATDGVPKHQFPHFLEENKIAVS
Sequence,E-score
AATTCTTA,0.24
AAAATCTC,0.0999
AGGATCGC,-0.159
AAGTCACT,0.178
GTAGGCAC,-0.231
CACGGAGA,-0.196
AGCGCTTA,-0.172
TACTTTCA,0.203
CAACAGAA,0.131
ACGCACAT,0.121
GGTCACGA,-0.166
CAAATGAG,0.109
TTCGTCAA,0.138
GCACAATA,0.191
ACAAGAAC,0.162
AGTCTTAC,0.0892

# Sample 3 — technique: RNA Bind-n-Seq; form: RNA; matrix: in vitro; concentration: not given; setting: RNA with constant flanks, ends assumed; baseline: input RNA pool; reading: higher = stronger binding
# Target: RING finger protein unkempt homolog, zinc fingers 1-6, GST-SBP tag (UNK, Homo sapiens, UniProt Q9C0B0, residues 30-357)
# All sequences stand within: GGGAGUUCUACAGUCCGACGAUC … CAACAGAGGAUUGAGCAUCA
# Target sequence (chain): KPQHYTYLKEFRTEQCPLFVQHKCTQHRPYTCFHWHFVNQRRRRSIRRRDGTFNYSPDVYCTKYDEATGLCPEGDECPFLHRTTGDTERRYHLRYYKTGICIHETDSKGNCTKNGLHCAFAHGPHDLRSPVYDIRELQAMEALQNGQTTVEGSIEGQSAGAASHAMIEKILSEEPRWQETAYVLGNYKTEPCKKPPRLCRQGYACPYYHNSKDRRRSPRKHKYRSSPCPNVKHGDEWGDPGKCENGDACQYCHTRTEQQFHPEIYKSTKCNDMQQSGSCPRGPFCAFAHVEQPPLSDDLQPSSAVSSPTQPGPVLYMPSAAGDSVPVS
Sequence,bound/input enrichment [ratio]
UCCACACAGAAGCACAAUUUUGUCCUCUUCCAGACACUGUUGCCUCUACCUAGUUAGACAAACCGGAUUUGACCUACAUUCUGUUGCCCCUAGGUUUGUGUUAGUGUCAGAAAUACUUAA,1.18
CUUUGAGGUAAGAAAAAUGCAACCUGGACUGAUGGAUGUGUGACCCCUUGUCACCAAUGGACCCGCCUGUGACAGCCACAUCUCCAGCAUCACAACGCAGGGUCACUGCCCCAUGGUUCU,0.0961
ACUGAAAAUAAAGAUAUUUAUUGGAAAAAUGUGAGAGAGAAGUUGUCAGCAGGAGAGAGCAUCCGUUUGGAUGAAUUCAAGUCAUUUUGCCAUUUUACAACCCACUUGGAAGACUUUGCU,0.278
CUGCAGCUAACGUCUCCCACUGACUACUCCAUUUUUGAUAACUAUUACAUCCCUGAAAUCACCCGUGUUUUGCUGUUGCGAUCCUGUAAGACUUUAACCCAUGAGAUCGGACACAUACUU,0.413
CCAGGUGUGCCCGGCUAAUGGUAUUACUGAGAGAGAGAGGCGUAAGAACUCUUAUUUAUUACCGAAAGGAUUUGGGGAAUGUGGGUCUAAGGGCUGGGGGUGUGGGUUAGUGGUGUGCAU,2.22
GCAGAGAUGGAGAACAUUAAGGCAAUUGCCACAGUCUCUGAGAAUACUAAGCAAGAAGCUACCGAUGAAGUUAAAAGGCAAUGGAGAGAAGAAGUUGCUUCACUUCAGGCUAUAAUGAAA,0.155
UCAGAACUCAUCUCUACUCGGUUCACAGGCGCCACUGGUAGAGCAUUUCUUUUUAACAAGGCCGUUAACUUGCAGUACAGUGAAGUUCAAGAUCGGGUCAUGCUCACUGGCCGCCACAUG,0.153
CAUGCAGUUGUGGUCAAUAUUGUGGUAAUCGCUAAUUGUACUGAUUGUUUAAGUGUGCAUCCGUUGUGUCUCCCCAGCUAGAUUGUAAGCUCCUGGAGGACAGGGACCACCUCUACAAAA,0.215

# Sample 4 — technique: competition protein-binding microarray; form: double-stranded DNA, one strand shown; matrix: in vitro; concentration: 2 µM; added: Pho4 competitor, 0.05 µM; reading: higher = stronger binding; all sequences stand within: … GTCTTGATTCGCTTGACGCTGCTG
# Target: Centromere-binding protein 1, full length, His-tagged (CBF1, Saccharomyces cerevisiae, UniProt P17106, residues 1-351)
# Sequence of UniProt P17106 (whole entry, looked up): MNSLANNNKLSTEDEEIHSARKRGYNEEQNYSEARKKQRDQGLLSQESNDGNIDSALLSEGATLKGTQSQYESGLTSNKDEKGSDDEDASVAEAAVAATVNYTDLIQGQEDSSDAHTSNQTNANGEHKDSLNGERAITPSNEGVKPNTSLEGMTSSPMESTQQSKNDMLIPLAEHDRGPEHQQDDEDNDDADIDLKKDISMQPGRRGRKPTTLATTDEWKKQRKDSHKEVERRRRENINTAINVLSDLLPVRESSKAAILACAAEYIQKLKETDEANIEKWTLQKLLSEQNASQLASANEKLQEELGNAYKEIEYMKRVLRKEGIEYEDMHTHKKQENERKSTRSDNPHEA
# Setting: whole 60-bp probe, lowest competitor level
Sequence,fluorescence intensity
GAGATACTTAAGCATCATGTGATGGTTTTGACACAA,1240 a.u.
GAGAAACTATTACAGCACGTGAAATCCTTGCCTATG,1110 a.u.
TGCGCAACAACTTGGAACGTGGGTGTATGTCTAGAA,74.7 a.u.
TCGCACTGAAGCGATCAGCTGATGAACAGGCGGTAC,395 a.u.
CTTCTGTAAATTTGACAAGTGGGTGGACGCGCCCCG,73.9 a.u.
CTAATTGTGCTTTTGCACGTGCCAGGTTTATTAAAC,2690 a.u.
TGCGCAACAACTTGTTACGTGGGTGTATGTCTAGAA,64.5 a.u.
CCTAATGCTACTCATCACAGCAATAAGGACACCTTT,62 a.u.
CAAGAAATCGCACTTTACGTGCAAACAAATCAAATG,96.1 a.u.
CTACTACAGATATTACATGTGGCGAAAAAGACAAGA,101 a.u.
TAATCGCAGTAGTTGAGCGTGCGATTTGCGCATTTG,70.4 a.u.
CGGAAGGGAGATCCGCACGTGACGGTTGAAAAAGGG,5160 a.u.
GGTTTTCTTTTTTGGAATGTGATATATATACATATT,130 a.u.
GTCTTGTCTCATTGCCATGTGGGTGTCCCCACTTCA,95.3 a.u.
TTTTTAGTAGTTTGTCATGCTGTATTAATGATTTTC,92.9 a.u.
CTTTCCCGATCTTTTCACGTGTAATTAGCACATTTG,672 a.u.
GGTGATAGCCATATCTTCGTGCTTTTGTTGCGATTG,77.8 a.u.
GTCCTTTGCCTCTACCTCGTGCTTTCTCTTGCCATG,180 a.u.
CTTTCCCGATCTTGAATCGTGGGTGTAGCACATTTG,72.7 a.u.

# Sample 5 — technique: RNA Bind-n-Seq; form: RNA; matrix: in vitro; concentration: 365 nM; baseline: no-protein control; reading: higher = stronger binding
# Target: RNA binding protein fox-1 homolog 2, RRM domain, GST-SBP tag (RBFOX2, Homo sapiens, UniProt O43251-10, residues 100-194)
# Setting: natural RNA segment, single round, ends assumed
# All sequences stand within: GGGAGUUCUACAGUCCGACGAUC … UGGAAUUCUCGGGUGCCAA
Sequence,RBNS enrichment (R)
AUGCGCCACCAGGAAUCCAGUCUUGUCAUUACAUAAAUAAUCUAAAUGACACUCAGAGAGGGACAGUGCAGUUUGACAUUCAGAUAACAGCAGCAUUGGCUGCUUUUGUU,0.626
UUCCCUGUGUAACCCCAGCCAGCAGGCCCAGCAUGGCUGCGUGCACUCAUUGCAGUCUUGUUGAACCAGGGUCCUAACCACUAACAUUGCAAUUUGCUUUGAGACCUUCC,0.504
GAGUUUAAAGUCUUAAUCUAUGCAUUCAGAGAAAUAUUUUUAUAUGCUUUGUGUAAUUUAUAACAAGGAUUUUUUUUUUAGCUUUGUUAACUGUGAAUUCACCCCUCCUC,0.524
GUAUAUAAGUGUGAAUCUCCUAUAAUGAUGGAAGAAGAGGUUCUCUUGUCUUAGAUAGAAAAGAGCCUUCUCCAAGAGCAAUGUCAAAACUUGGGCUGUCAUCUUUGAGC,1.42
ACAAAGUGCAAUACAGAGCCUUCCCUACCCUGACGCCUCCCAGUCAUCAUCUCCAGAACUCCCAGCGGGGCUCCCUGAGCUCUCAAGGAGAUGCUGCCAUCACUGGGAGG,0.528
GGUAUGUUGCGGGGUAUUAAGCAGGAAACCACUGUGUGGUGGGGGGCACUGGGCUUGUUGGGGCCAGAAAUGUCCACGUCCUGAGCUUUCUCCUGGAGCAUGUGCAGAGA,1.62
CCCAUCUCUUAACAAUAUGGACAGAUGAGUGUGCCAUGGCCAUGAGCUAUUUCCUAACGCAGAAGGAAUUUGUUGUUACUUUUUGGAUUGUACUCUUCUAGGCUGGACCG,0.627
CCAGAAAGUGUUAUAUAUUUAUUUCUGUCGGAACAGUGUUAUGCUACAAGACUUCAUAAUGGUUUUGUGUGCUCUCGAGAGAGUACCUGCAGACUAGUUUUGGAUACAUU,0.473
